Measured values pooled from the literature.
Lines come from different studies, so protocols differ.
UniProt P38646, sequence (whole entry, looked up): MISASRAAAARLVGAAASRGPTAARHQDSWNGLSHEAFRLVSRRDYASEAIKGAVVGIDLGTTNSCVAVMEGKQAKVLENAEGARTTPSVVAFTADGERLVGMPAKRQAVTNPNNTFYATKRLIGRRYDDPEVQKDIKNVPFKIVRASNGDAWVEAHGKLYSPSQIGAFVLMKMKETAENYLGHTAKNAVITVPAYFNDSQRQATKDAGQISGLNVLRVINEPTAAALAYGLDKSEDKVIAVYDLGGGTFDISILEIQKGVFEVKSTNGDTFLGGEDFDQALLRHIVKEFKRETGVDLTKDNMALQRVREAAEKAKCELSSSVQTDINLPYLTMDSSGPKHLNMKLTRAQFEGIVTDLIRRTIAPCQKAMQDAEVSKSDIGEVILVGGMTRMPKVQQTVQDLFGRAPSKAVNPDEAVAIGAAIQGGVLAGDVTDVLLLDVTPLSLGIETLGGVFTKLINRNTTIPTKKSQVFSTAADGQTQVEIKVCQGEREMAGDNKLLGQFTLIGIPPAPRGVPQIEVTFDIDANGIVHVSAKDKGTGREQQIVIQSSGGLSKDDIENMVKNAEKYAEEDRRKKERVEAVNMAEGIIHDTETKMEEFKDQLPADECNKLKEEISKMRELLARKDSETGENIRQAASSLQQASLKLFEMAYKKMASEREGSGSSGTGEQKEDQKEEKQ

COc1cc(CCC[P+](c2ccccc2)(c2ccccc2)c2ccccc2)c(OC)c2c1OCO2.[I-]  TGI (SW-620; SRB): -4.94 log M
Cc1ccc([C@@H]2O[C@H](CO)[C@@H](O)[C@H](O)[C@H]2O)cc1Cc1ccc(-c2ccc(F)cc2)s1  maximum inhibition (human coronavirus OC43; virus-induced cell killing; MRC-5; maximum over 10 doses): 0%
CC(C)N1CCC(NC2CCN(c3cccc(-c4cc5cc(F)ccc5[nH]4)c3)CC2)CC1  CC50 (COLO 205): 7.03 µM
C[C@H]1CN(c2n[nH]c3nc(N[C@H]4CC[C@H](NS(=O)(=O)CCC(F)(F)F)CC4)ncc23)CCO1  relative abundance (Stress-70 protein, mitochondrial (HSPA9, Homo sapiens, UniProt P38646); inhibitor, Kinobeads competition profiling; 0.8 µM; baseline: vehicle): 1.16
CC[C@H](C)[C@@H]1NC(=O)[C@@H]2CCCN2C(=O)[C@H](CC(C)C)NC(=O)[C@H](CC(C)C)NC(=O)CNC(=O)[C@@H](NC(=O)[C@@H](NC(=O)[C@H](CC(=O)O)NC(=O)CNC(=O)[C@@H](NC(=O)[C@H](C)NC(=O)CNC(=O)[C@H](CCCCN)NC(=O)[C@H](CC(C)C)NC(=O)[C@H](CC(C)C)NC(=O)[C@H](CCCCN)NC(=O)CNC(=O)[C@@H](NC(=O)[C@@H](N)CC(C)C)C(C)C)C(C)C)C(C)C)CSSC[C@@H](C(=O)O)NC1=O  log2 fold change (RNA-seq, measured: Lrrc25; mouse, traumatic brain injury model, frontal cortex and hippocampus; dose not given; baseline: TBI alone): -2.25
Nc1ncnc2c1ncn2[C@@H]1O[C@@H]2COP(=O)(O)O[C@H]3[C@@H](O)[C@H](n4cnc5c(=O)[nH]cnc54)O[C@@H]3COP(=O)(O)O[C@H]2[C@H]1O  fold enrichment (HFF-1; RNA sequencing, measured: Reactome ISG antiviral mechanism; upregulated pathways; baseline: mock): 11.5
COc1c(CCC[P+](c2ccccc2)(c2ccccc2)c2ccccc2)cc2c(c1OC)OCO2.[I-]  Log10GI50 (NCI/ADR-RES; SRB): > -4 log M
COc1ccc2c(c1)[nH]c1c(C)nccc12  methylation reduction (DU-145; bisulfite pyrosequencing, measured: RASSF1A promoter CpG site 29; concentration not given; baseline: vehicle): 0.07%
C/C=C(/C)C(=O)O[C@H]1C(C)=C2[C@H]([C@@H]1OC(=O)CCCCCCC)[C@@](C)(OC(C)=O)C[C@H](OC(=O)CCC)[C@@]1(O)[C@H]2OC(=O)[C@@]1(C)O  log2 fold change (HEK293T; RNA-seq, measured: HSPH1 mRNA; 10 µM, 6 h; baseline: vehicle): -0.38
Cc1cc(C(C)(C)c2ccc(O)c(C)c2)ccc1O  viability (HepG2 spheroids; MTS; 80 µM, 96 h; baseline: solvent control): ~35%
CN1CCN(C2(CNC3CCN(c4cccc(-c5cc6cc(F)ccc6[nH]5)c4)CC3)CCC2)CC1  CC50 (OVCAR-5): 6.71 µM
COc1c(C)c2c(c(O)c1C/C=C(\C)CCC(=O)O)C(=O)OC2  IC50 (Calu-6; cell proliferation; lung cancer): 1.05 µM
O=C(O[C@@H]1Cc2c(O)cc(O)cc2O[C@@H]1c1cc(O)c(O)c(O)c1)c1cc(O)c(O)c(O)c1  maximum inhibition (human coronavirus OC43; virus-induced cell killing; MRC-5; screen): 22.9%
